Published values of several laboratories.
Compare with care: the assays were run in different laboratories.

CCn1cc(C(=O)N2CCOCC2)c(=O)c2cc(NC3Cc4ccccc4C3)cnc21  Tmax (human, fasted, plasma; oral, 900 mg single dose, tablet, median): 1.5 h
CCN1CCN(Cc2ccc(Nc3ncc(F)c(-c4cc(F)c5nc6n(c5c4)[C@H](C)CCC6)n3)nc2)CC1  Tmax (human, Phase Ib patients, plasma; 400 mg, multiple doses, median, added: fulvestrant): 5.94 h
C=CCn1c(=O)c2cnc(Nc3ccc(N4CCN(C)CC4)cc3)nc2n1-c1cccc(C(C)(C)O)n1  Tmax (human; oral, 200 mg once daily, cycle 1 day 17, added: durvalumab 1500 mg IV; median): 3 h
O=C(O)CCC(=O)O.[2H]C([2H])([2H])Oc1cc(C)c2[nH]ccc2c1CN1CC[C@@H](C2CC2)C[C@H]1c1ccc(C(=O)O)cc1  Tmax (human, plasma; 300 mg once daily, day 1, multiple ascending dose, median): 4 h
NC1(C(=O)N[C@@H](CCO)c2ccc(Cl)cc2)CCN(c2nc[nH]c3nccc2-3)CC1  Tmax (LC-MS/MS, non-compartmental; human patients, plasma; 160/480 mg cohort, cycle 0, median, added: enzalutamide): 2.1 h
Cl.[2H]C([2H])([2H])CC(=O)c1cnc(NC(=O)C2CC2)cc1Nc1cccc(-c2ncn(C([2H])([2H])[2H])n2)c1OC  Tmax (median; human; oral, 40 mg twice daily, day 1, fasted, tablet, multiple dose): 2.06 h
CO[C@H]1C[C@@H]2CC[C@@H](C)[C@@](O)(O2)C(=O)C(=O)N2CCCC[C@H]2C(=O)O[C@H]([C@H](C)C[C@@H]2CC[C@@H](OC(=O)NCCOCCOCCOCCOCCOCCOCCOCCOCCC(=O)N3CCc4cc(Cn5nc(-c6ccc7oc(N)nc7c6)c6c(N)ncnc65)ccc4C3)[C@H](OC)C2)C[C@@H](O)[C@H](C)/C=C(\C)[C@@H](O)[C@@H](OC)C(=O)[C@H](C)C[C@H](C)/C=C/C=C/C=C/1C  Tmax (human, plasma; intravenous, 12 mg, cycle 1 day 1, arithmetic mean): 0.91 h
CN1C(=O)[C@@H](NC(=O)c2nnc(Cc3ccccc3)[nH]2)COc2cccnc21  Tmax (human, plasma; oral, 50 mg once daily, day 14, median): 3.01 h

Excerpt of the above:
NC1(C(=O)N[C@@H](CCO)c2ccc(Cl)cc2)CCN(c2nc[nH]c3nccc2-3)CC1  Tmax (LC-MS/MS, non-compartmental; human patients, plasma; 160/480 mg cohort, cycle 0, median, added: enzalutamide): 2.1 h
